Measured values pooled from the literature.
Parts stem from different laboratories: compare values within a part only. Changes are numbered by the printed parent chain.

Study 1
Target: Interferon regulatory factor 7, full length, phosphomimetic (IRF7, Homo sapiens, UniProt Q92985, residues 1-503, S471D/S472D/S475D/S476D/S477D/S483D/S484D/S487D)
Chain of UniProt Q92985 (whole entry, unmodified, looked up): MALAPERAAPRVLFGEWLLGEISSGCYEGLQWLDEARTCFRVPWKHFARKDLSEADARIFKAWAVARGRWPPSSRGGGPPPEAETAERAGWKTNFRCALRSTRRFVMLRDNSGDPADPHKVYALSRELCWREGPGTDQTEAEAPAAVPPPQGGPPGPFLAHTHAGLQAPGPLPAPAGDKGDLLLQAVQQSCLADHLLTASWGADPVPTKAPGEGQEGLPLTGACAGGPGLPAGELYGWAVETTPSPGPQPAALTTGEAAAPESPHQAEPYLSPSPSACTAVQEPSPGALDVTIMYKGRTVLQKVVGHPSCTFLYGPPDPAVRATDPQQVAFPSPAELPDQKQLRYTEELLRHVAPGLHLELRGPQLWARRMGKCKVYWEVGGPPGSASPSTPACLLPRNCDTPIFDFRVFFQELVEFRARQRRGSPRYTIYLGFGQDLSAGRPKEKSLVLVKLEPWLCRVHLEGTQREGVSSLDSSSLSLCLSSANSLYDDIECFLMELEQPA
Method: protein-binding microarray
Molecule type: double-stranded DNA, one strand shown
Medium: in vitro
Concentration: 2200 nM top
Notes: 60-bp whole probe
Together with: salmon DNA 0.4 mg/ml
Baseline: random background probes
Direction: higher = stronger binding
Quantity: fitted relative affinity
Constant ends, left off below: GCCTAGCAC … GTCTTGATTCGCTTGACGCTGCTG
TTAGGTATCGGGTTTCGGATAGTGCTA: 2.14 z-score
GACGGTATCATTTTCCTGACGTGCTAG: 1.46 z-score
ACTCGTTTACATTTTCCAAAGTGCTAG: 3.05 z-score
TTAGAAGTGAGTCTCGATTAGTGCTAG: -0.383 z-score
TTAGGTTTCGGGTATCGGATAGTGCTA: 6.28 z-score
TCATGTATATACTATATGACTGTGCTA: 0.681 z-score
TTAGGTTACGGTCTCGGTTAGTGCTAG: 0.828 z-score
TCAACATTGTGCAATCTTACTGTGCTA: 0.393 z-score
GACGGTATCGGGTTTCGTGACGTGCTA: 1.01 z-score
TATTATTTGCCTTGCATTTTGTGCTAG: 0.794 z-score
TTAGGTCTCCTTCTCCGTTAGTGCTAG: 0.937 z-score

Study 2
Target: CCNA1, cyclin fold, Cln2 fusion (human)
Method: yeast growth competition, sequencing
Medium: yeast
Notes: weak parent motif
Baseline: not given
Direction: higher = stronger binding
Quantity: normalised enrichment score
Starting sequence: CDC25A docking peptide (human); PPHRRRLLFACSP
PPHRRALLFACSP [R6A]: 0.26
PPHRRRLLFACST [P13T]: 0.348
PPHRRRLLWACSP [F9W]: 0.232
PPHPRRLLFACSP [R4P]: 0.135
SPHRRRLLFACSP [P1S]: 0.221
PPHRRRYLFACSP [L7Y]: 0.144
WPHRRRLLFACSP [P1W]: 0.288

Study 3
Target: CREBRF, bZIP domain (human)
Method: DHFR protein complementation
Medium: yeast
Notes: single substitutions, most at no-binding floor
Baseline: wild-type JUN-FOS pair
Direction: higher = stronger binding
Quantity: binding fitness
Starting sequence: JUN, bZIP domain (human); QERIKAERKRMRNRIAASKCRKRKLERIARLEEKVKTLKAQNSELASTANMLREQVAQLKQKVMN; partner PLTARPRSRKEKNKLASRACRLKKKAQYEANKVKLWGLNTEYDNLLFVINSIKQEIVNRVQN
V35A: -1.5 natural log
L38D: -1.5 natural log
A57K: -1.54 natural log
A49N: -1.54 natural log
A29R: -1.38 natural log
E32I: -1.16 natural log
I28M: -1.45 natural log
A49T: -1.55 natural log

Single results of other studies
PhoQ, residues 284 288 289 292 302 303 SLSLLA
fold induction (PhoP, residues 12 14 15 18 19 HLGGL (Escherichia coli, UniProt P23836); Sort-seq, item: YFP reporter; E. coli; PhoQ-PhoP variant library, together with: 10 µM Mg2+; baseline: high Mg2+ state, higher = stronger signaling): 22.7

Excerpt of the above (study 2):
PPHRRALLFACSP [R6A]: 0.26
